Results from different studies.
Each line is one published result; not all experiments were run side by side. “And” joins repeats or separate records; there may be more than shown. Numbers after ± are the reported error.

Structure (SMILES) | test | test system | setting | scale | quantity | value
Cc1cc(-c2nccc3c2ccn3CC(=O)Nc2ccc(-c3cnccn3)cn2)ccn1 | – | human | MAD part, 5 mg once daily | – | subjects with TEAE leading to discontinuation | 25%
CC1(C)S[C@@H]2[C@H](NC(=O)[C@H](N)c3ccc(O)cc3)C(=O)N2[C@H]1C(=O)O | – | male Hartley guinea pigs, anaesthetized | intravenous, 10 mg/kg over 10 min, after infusion | – | heart rate | 208 ± 0.2 beats/min
O=C(COc1ccc(Cl)cc1)NC12CC(c3nnc([C@H]4C[C@@H](OC(F)(F)F)C4)o3)(C1)C2 | refers to: Presyncope | human | 200 mg once daily, 28 (unit not given) | – | adverse event incidence | 11.1%
CCN1CCN(Cc2ccc(Nc3ncc(F)c(-c4cc(F)c5nc6n(c5c4)[C@H](C)CCC6)n3)nc2)CC1 | – | human, phase Ia | day 28, steady state | – | Tmax | 2 to 7 h
CC[C@H](C)[C@H](NC(=O)[C@H](Cc1ccccc1)NC(=O)[C@H](CCC(=O)O)NC(=O)[C@H](CCCCNC(=O)COCCOCCNC(=O)COCCOCCNC(=O)CC[C@H](NC(=O)CCCCCCCCCCCCCCCCC(=O)O)C(=O)O)NC(=O)[C@H](C)NC(=O)[C@H](C)NC(=O)[C@H](CCC(N)=O)NC(=O)CNC(=O)[C@H](CCC(=O)O)NC(=O)[C@H](CC(C)C)NC(=O)[C@H](Cc1ccc(O)cc1)NC(=O)[C@H](CO)NC(=O)[C@H](CO)NC(=O)[C@@H](NC(=O)[C@H](CC(=O)O)NC(=O)[C@H](CO)NC(=O)[C@@H](NC(=O)[C@H](Cc1ccccc1)NC(=O)[C@@H](NC(=O)CNC(=O)[C@H](CCC(=O)O)NC(=O)C(C)(C)NC(=O)[C@@H](N)Cc1cnc[nH]1)[C@@H](C)O)[C@@H](C)O)C(C)C)C(=O)N[C@@H](C)C(=O)N[C@@H](Cc1c[nH]c2ccccc12)C(=O)N[C@@H](CC(C)C)C(=O)N[C@H](C(=O)N[C@@H](CCCNC(=N)N)C(=O)NCC(=O)N[C@@H](CCCNC(=N)N)C(=O)NCC(=O)O)C(C)C | 12-lead Holter ECG | healthy humans | subcutaneous, 1.5 mg once weekly, 25 h, steady state | relative to: placebo | QT change from baseline | -21.1 ms
O=C1Cc2cc(CCN3CCN(c4nsc5ccccc45)CC3)c(Cl)cc2N1 | – | male Hartley guinea pigs, anaesthetized | intravenous, 0.3 mg/kg over 10 min, after infusion | – | heart rate | 186 ± 0.3 beats/min
Cc1cc(OCCOCCC(F)(F)P(=O)(O)O)ccc1CCc1cnc2c(N)nc3cc(CCC(=O)O)ccc3c2c1 | – | human, serum | intratumoral, 400 µg every 2 weeks, cycle 1 day 1 | – | AUC(tau) | 64.5 ng·h/mL
[18F]c1ccc(-c2ccc3c(c2)[nH]c2ccncc23)cn1 | ex vivo biodistribution | APP/PS1 Alzheimer mice, gut | intravenous, 30 min | – | uptake | 1.73 ± 0.685 SUV
C=CC(=O)N1CCC(Oc2cc3c(Nc4ccc(Cl)c(Cl)c4F)ncnc3cc2OC)CC1 | – | Sprague-Dawley rat, male, plasma | oral, 2 mg/kg, added: vehicle pretreatment | – | MRT(0-t) | 4.9 ± 0.62 h
Cc1ccc(O)c(-n2nc3ccccc3n2)c1 | exposure assessment | human, age 2-3 years | concentration not given, spray sunscreen, 95th percentile | – | daily dermal uptake, percentile | 3980 ng/kg body weight/day
Cc1ccc([C@@H]2O[C@H](CO)[C@@H](O)[C@H](O)[C@H]2O)cc1Cc1ccc(-c2ccc(F)cc2)s1 | – | Japanese type 2 diabetes patients | 25 mg, day 17, 24 h urine collection | relative to: baseline | urinary potassium excretion change | -6.11 mEq
O=C(O)CCc1ccc(O)c(O)c1 | – | human CSF | concentration not given, mean | – | CSF concentration | not detected
C[C@@H](Nc1cc(F)cc(F)c1)c1cc(C(=O)N(C)C)cc2c(=O)cc(N3CCOCC3)oc12 | refers to: aspartate aminotransferase increased | patients with advanced solid tumours | oral, dose not given, dose finding phase I | – | treatment-related serious adverse events | 1.6%
COc1ccc2c(=O)n(C)c(-c3ccccc3)nc2c1 | – | Sprague-Dawley rat, brain | oral, 30 mg/kg, 0.25 h | – | tissue concentration | not detected
COc1cc(C2=CCCc3c2ccc(OC)c3OC(C)c2ccc([N+](=O)[O-])s2)cc(OC)c1OC (stereo not drawn) | non-enzymatic, no POR | phosphate buffer | 24 h, pH 7.4 | – | parent drug release | 0%
COc1cc(C(=O)N2CCC3(CC2)CC(=O)c2c(cnn2C(C)C)C3)cc(-c2ccc(C(=O)O)cc2)n1 | refers to: total cholesterol | human, fasting serum | 30 mg every 12 h, day 13, adjusted geometric mean | relative to: baseline | percentage change from baseline | -4.6%
CS(=O)(=O)c1ccc([C@@H](O)[C@@H](CF)NC(=O)C(Cl)Cl)cc1 | – | chicken (Arbor Acres), plasma | oral, 20 mg/kg, added: quercetin 20 mg/kg pretreatment | – | MRT(0-inf) | 3.87 ± 0.57 h
C=C(NC(=O)c1nccc(OC)c1O)C(=O)O[C@@H](C)[C@H](OC(=O)C(C)C)[C@@H](Cc1ccccc1)C(=O)O | FOCUS PEARL groundwater modelling | soil | geometric mean input | – | KOC | 594 mL/g
CO[C@H]1/C=C/O[C@@]2(C)Oc3c(C)c(O)c4c(O)c(c(/C=N/N5CCN(C)CC5)c(O)c4c3C2=O)NC(=O)/C(C)=C\C=C\[C@H](C)[C@H](O)[C@@H](C)[C@@H](O)[C@@H](C)[C@H](OC(C)=O)[C@@H]1C | – | healthy human volunteers | oral, 600 mg, itraconazole cohort, added: gepotidacin 1500 mg | – | incidence of gastrointestinal disorders | 18%
CN[C@@H]1COc2c(S(=O)(=O)NC(=O)Nc3c4c(cc5c3CCC5)CCC4)cnn2C1 | – | human, plasma | oral, 900 mg twice daily, D10 | – | predose plasma concentration | 4300 ng/mL
CCCCC[C@H](O)CC[C@@H]1[C@H]2Cc3cccc(OCC(=O)O)c3C[C@H]2C[C@H]1O | LC-MS/MS | female Japanese PAH patients, plasma | inhaled, 54 µg | – | geometric mean AUC(0-last) | 0.84 ng·h/mL
C[C@H](CS)C(=O)N1CCC[C@H]1C(=O)O | – | male Hartley guinea pigs, anaesthetized | intravenous, 30 mg/kg over 10 min, after infusion | – | heart rate | 224 ± 0.4 beats/min
O=S(=O)(O)Oc1cc(CCO)ccc1O | – | human CSF | concentration not given, mean | – | CSF concentration | not detected

Structure (SMILES) | test | test system | setting | scale | quantity | value
O=C1c2ccncc2C(=O)c2c1[nH]c1ccccc21 | – | Sprague-Dawley rat, female, right ventricle | oral, 5 mg/kg, 24 h | – | tissue concentration | 0.071 ± 0.029 nmol/mg
CC(=O)N[C@H]1[C@H]([C@H](O)[C@H](O)CO)OC(C(=O)O)=C[C@@H]1N=C(N)N | HPLC | HBSS | 5 µg/mL, 36 h, room temperature, short-term stability | – | recovery | 103%
CCC(=O)N(CCC(c1ccc2c(c1)OCO2)c1ccccc1OC)Cc1ccccc1 (stereo not drawn) | – | mouse, blood | i.p., 60 mg/kg twice daily, 2 weeks | – | albumin | 2.52 g/dL
O=C(O)/C=C/c1cccc(O)c1 | – | human CSF | concentration not given, mean | – | CSF concentration | not detected
CCCCC1=NC2(CCCC2)C(=O)N1Cc1ccc(-c2ccccc2S(=O)(=O)Nc2noc(C)c2C)c(COCC)c1 | – | healthy adult volunteers, plasma | oral, 200 mg, 14 days repeated dosing, fasted, crushed tablet | – | AUC(0-inf) | 46700 ng·h/mL
CN(CCC(=O)O)C(=O)c1ccc2c(c1)CC[C@@H]1[C@@H]2CC[C@]2(C)C(c3cncc(F)c3)=CC[C@@H]12 | – | premenopausal women with endometriosis pain, serum | 60 mg twice daily, end of treatment, completers, mean | relative to: baseline | indirect bilirubin change | 0.35 mg/dL
CNc1ccc(-c2nc3ccc(O)cc3s2)cc1 [carbon-11 labelled] | ex vivo biodistribution | APP/PS1 Alzheimer mice, cecum | intravenous, 30 min | – | uptake | 0.435 ± 0.236 SUV
CO[C@@H]1[C@H](OC(=O)N2CC(CCN3CCOCC3)C2)CC[C@]2(CO2)[C@H]1[C@@]1(C)O[C@@H]1CC=C(C)C | – | humans | subcutaneous, 0.6 mg twice weekly for 4 weeks, day 28 | relative to: baseline | activated partial thromboplastin time | -0.4 ± 1.4 s
O=C(Nc1nc2cccc(-c3ccc(CN4CCS(=O)(=O)CC4)cc3)n2n1)C1CC1 | refers to: gastrointestinal disorders | human rheumatoid arthritis patients | oral, 300 mg once daily, 4 weeks, regardless of relatedness | – | treatment-emergent adverse events | 15%
CCOc1c([C@H](C)n2nc(C)c3c(N)ncnc32)cc(Cl)c(F)c1[C@@H]1CNC(=O)C1 | ECG | previously treated B-cell malignancy patients | oral, 5 mg once daily, baseline QTcF ≤450 ms | – | observations QTcF >480 ≤500 ms | 0%
CN(CCC#N)C1CCN(C(=O)Cn2cc(NC(=O)c3cnn4cccnc34)c(-c3cc(Cl)ccc3OC(F)F)n2)CC1 | – | human, single ascending dose | 5 mg, day 4 | relative to: baseline | reticulocyte count change | 3.3 10⁹/L
OC[C@H]1O[C@@H](c2ccc(Cl)c(Cc3ccc(O[C@H]4CCOC4)cc3)c2)[C@H](O)[C@@H](O)[C@@H]1O | – | Japanese type 1 diabetes patients, blood | 25 mg, day 28 | relative to: baseline | change in Triglycerides | -0.42 mg/dL
CC(=O)Oc1ccccc1C(=O)O | – | male Hartley guinea pigs, anaesthetized | intravenous, 10 mg/kg group, baseline before infusion | – | heart rate | 267 ± 0.5 beats/min
O=C(O)CSc1nnc(Br)n1-c1ccc(C2CC2)c2ccccc12 | – | KM mouse, chronic hyperuricaemia model | dose not given, day 27 | – | body weight | 35.2 g and 38.2 g and 33.7 g and 38.7 g and 42.4 g and 39.1 g
O=C(Nc1cnccc1Cl)N1CCN(Cc2ccc3c(c2)OC(F)(F)O3)CC1 | refers to: Ecchymosis | healthy elderly humans | 100 mg once daily, 10 days | – | volunteers with adverse event | 0%
CC[C@H](C)[C@H](NC(=O)[C@H](Cc1ccccc1)NC(=O)[C@H](CCC(=O)O)NC(=O)[C@H](CCCCNC(=O)COCCOCCNC(=O)COCCOCCNC(=O)CC[C@H](NC(=O)CCCCCCCCCCCCCCCCC(=O)O)C(=O)O)NC(=O)[C@H](C)NC(=O)[C@H](C)NC(=O)[C@H](CCC(N)=O)NC(=O)CNC(=O)[C@H](CCC(=O)O)NC(=O)[C@H](CC(C)C)NC(=O)[C@H](Cc1ccc(O)cc1)NC(=O)[C@H](CO)NC(=O)[C@H](CO)NC(=O)[C@@H](NC(=O)[C@H](CC(=O)O)NC(=O)[C@H](CO)NC(=O)[C@@H](NC(=O)[C@H](Cc1ccccc1)NC(=O)[C@@H](NC(=O)CNC(=O)[C@H](CCC(=O)O)NC(=O)C(C)(C)NC(=O)[C@@H](N)Cc1cnc[nH]1)[C@@H](C)O)[C@@H](C)O)C(C)C)C(=O)N[C@@H](C)C(=O)N[C@@H](Cc1c[nH]c2ccccc12)C(=O)N[C@@H](CC(C)C)C(=O)N[C@H](C(=O)N[C@@H](CCCNC(=N)N)C(=O)NCC(=O)N[C@@H](CCCNC(=N)N)C(=O)NCC(=O)O)C(C)C | – | type 2 diabetes patients | dose not given, hypoglycaemic clamp, nadir PG 5.5 mmol/L | relative to: placebo | heart rate difference | 0.9 beats/min
Cc1ccc(C(=O)N(CCCN)C(c2nc3snc(C)c3c(=O)n2Cc2ccccc2)C(C)C)cc1 (stereo not drawn) | refers to: Stomatitis | human patients | intravenous, 16 mg/day, CTCAE grade ≥3 | – | patients with adverse events | 0%
O=C(N[C@H](Cc1c[nH]c2ccccc12)C(=O)Nc1ccncc1)c1ccc(N2CCN(c3ccc(F)cc3F)CC2)cc1F | – | Swiss Webster mouse, female, muscle | oral, 50 mg/kg, 8 h, 20% HPβCD vehicle | – | concentration | 3.75 µM
CCO[C@H]1CCN(Cc2c(OC)cc(C)c3[nH]ccc23)[C@H](c2ccc(C(=O)O)cc2)C1 | – | PNH patients, active haemolysis | oral, 25 mg, 4 weeks, treatment | – | incidence musculoskeletal chest pain | 0%
CN(C(=O)n1cnc(-c2cccnc2)c1)[C@H]1CC[C@H](O)CC1 | – | Wistar rat, medulla oblongata | oral, 10 mg/kg/day of BIA 10-2474, 72 h, repeated 5 days | – | concentration | 13.4 ± 1.4 ng/g
N#Cc1ccc2c(c1)[C@H]1CCCN(C(=O)c3ccc4[nH]cnc4c3)[C@H]1C2 | – | human | 160 mg, end of trial | – | mean ACTH level | 5.4 pmol/L
CCCCOC(=O)N1CCN(C(=O)[C@H](CP(=O)(O)O)NC(=O)c2cc(N3CC[C@H](OC)C3)nc(-c3ccccc3)n2)CC1 | – | human | subcutaneous, 8 mg, 1 h post-dose | relative to: baseline | change in heart rate | -4.2 ± 8.5 beats/min
